# Measured values pooled from the literature.
# A part holds a random share of what one study measured. Positions count from the first letter of the parent shown.

# Block 1
# Target: CCND1, cyclin fold, Cln2 fusion (human)
# Method: yeast growth competition, sequencing
# Medium: yeast
# Setting: weak parent motif
# Relative to: not given
# Reading: higher = stronger binding
# Starting sequence: CDKN1B docking peptide (human); PSACRNLFGPVDH; partner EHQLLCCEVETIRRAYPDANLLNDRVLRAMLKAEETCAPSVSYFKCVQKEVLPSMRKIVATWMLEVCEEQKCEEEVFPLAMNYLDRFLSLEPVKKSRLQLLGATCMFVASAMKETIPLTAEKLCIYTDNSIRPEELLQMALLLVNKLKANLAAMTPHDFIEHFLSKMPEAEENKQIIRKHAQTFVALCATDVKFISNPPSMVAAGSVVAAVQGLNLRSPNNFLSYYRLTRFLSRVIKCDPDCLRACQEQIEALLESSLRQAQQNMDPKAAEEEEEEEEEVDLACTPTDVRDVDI
Change,normalised enrichment score
A3I,0.755
V11D,0.666
V11L,0.636
H13M,0.81
G9K,0.604
P10R,0.833
L7Y,-0.108
P1I,-0.0318
P10K,0.267
A3R,0.105
A3N,0.303
R5S,0.24
F8S,0.632
V11A,0.455
H13F,1.18
L7N,-0.429

# Block 2
# Target: Eukaryotic initiation factor 4A-I (EIF4A1, Homo sapiens, UniProt P60842, residues 1-406, full length assumed)
# Chain of UniProt P60842 (whole entry, looked up): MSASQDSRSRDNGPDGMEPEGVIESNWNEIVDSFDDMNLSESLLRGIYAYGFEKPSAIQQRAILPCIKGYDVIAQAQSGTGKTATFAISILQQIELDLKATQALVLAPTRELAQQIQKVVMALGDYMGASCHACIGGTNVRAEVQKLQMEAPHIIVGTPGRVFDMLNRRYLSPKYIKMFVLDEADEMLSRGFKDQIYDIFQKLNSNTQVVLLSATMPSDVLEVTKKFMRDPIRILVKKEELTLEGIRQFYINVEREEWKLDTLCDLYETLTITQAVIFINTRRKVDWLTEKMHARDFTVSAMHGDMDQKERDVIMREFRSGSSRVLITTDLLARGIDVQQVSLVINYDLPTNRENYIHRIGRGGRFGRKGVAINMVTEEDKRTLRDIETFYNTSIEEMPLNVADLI
# Method: RNA Bind-n-Seq
# Form: RNA
# Medium: in vitro
# Concentration: 15 pmol
# Setting: 4-mer, random 30-nt RNA, single round
# With: 3 µM DMDA-PatA, 2 mM AMP-PNP
# Relative to: input library
# Reading: higher = stronger binding
Oligonucleotide,4-mer enrichment [fold]
UGAA,1.18
AGGC,0.935
UGCG,1.23
AAUG,1.17
GUAC,1.3
CUGA,0.634
AUCU,0.993
GAAA,0.921
CCUA,0.829
GCCA,0.55
UGUG,1.9
ACAA,0.695
CGUC,0.57
AGGA,0.901

# Block 3
# Target: TAR DNA-binding protein 43, full length, His tag (TARDBP, Homo sapiens, UniProt Q13148, residues 1-414)
# Method: RNA Bind-n-Seq
# Form: RNA
# Medium: in vitro
# Concentration: 20 nM
# Setting: 6-mer, flanks averaged, single round
# With: 150 mM KCl
# Relative to: input library
# Reading: higher = stronger binding
Oligonucleotide,6-mer enrichment (R)
CACCUG,0.663
GGAUCG,1.56
UGGAGC,1.35
UGGAUC,0.743
GCCGGC,1.45
GGAGUC,1.37
UUGGAG,1.32
ACGUCC,0.622
GUACAC,0.707
ACGAUC,0.589

# Block 4
# Target: RNA binding protein fox-1 homolog 2, RRM domain, GST-SBP tag (RBFOX2, Homo sapiens, UniProt O43251-10, residues 100-194)
# Method: RNA Bind-n-Seq
# Form: RNA
# Medium: in vitro
# Concentration: 365 nM
# Setting: natural RNA segment, single round, ends assumed
# Relative to: no-protein control
# Reading: higher = stronger binding
# All sequences stand within: GGGAGUUCUACAGUCCGACGAUC … UGGAAUUCUCGGGUGCCAA
# Target sequence (chain): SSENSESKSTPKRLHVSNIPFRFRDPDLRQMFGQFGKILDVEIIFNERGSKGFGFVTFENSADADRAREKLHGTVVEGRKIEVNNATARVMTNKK
Oligonucleotide,RBNS enrichment (R)
UGUGACCAGCUCGACUGGCGGCCACUGGCUGUUCCCAUGAGUUCAGCUGUGACGUUAGCUUCAGUGGCUCCGCCGCAUCCUCACACUGACGGGGGCUCCAUACGGACCUG,0.323
CUUGGAUGGUCUCUUGUCCCUGAAUUUCAUUGUAUCAUGCAUGGAGAGAAAUGUUUGUCUUUCUGUUGUCUAUACAUCAAAGAAGCCAUUAAAUUGUUUUAUUUCUCAAG,3.54
AUCACCUGCAACUUAAAUGAACAAGCUUACAUCCCAUUUUGAGUGAAGAUUUUGAGGUUUUUAAUUUAAAGGCUGUGUACAGUUAUACUUUUUUAUACACCUGUUCAUUU,0.458
CAGCAGUCCCAGUAUUCUCAGAGCAUGUGUCAGAGUGUUGUUCCGUUAACCUUUUUGUAAAUACUGCUUGACCGUACUCUCACAUGUGGCAAAAUAUGGUUUGGUUUUUC,9.57
UAUAAUGCUUUAUACUUUGCCAGGAAGAAGUAUAGCUAUAGUUGAGGUGUACCUAAGAAAUUAGCAAGAAUGGAUCUGCGUCUCAGCUCAGCAGAACUAUAGCCAAUGUU,3.43
UCUUUUUUUAAUAAUUUCAUCCCUAUUUAUAGUUUUUAUAUUAAUUUGUUUUUCUUAUCCAAGUAAAGAUGUCAAUAGGAAUUGCAUUAGUCCAAGGCCUUUUUCAUAAA,1.23
ACCUCUGGGGGUAGAGGGAAGACCUAAUUCACAGGUCCUGGGAAAUUUGCUCAAUAAAAGUGGCCUUCCCUUGCCCUCCACACUAGGUCAUGUACAGUCUACCGCACCCU,0.326
CCCAGGACUCUAAAUUAUUGGGGUAAAAAACAGCCUUGCAAGAAAAAGGGGAGCUAUUUUUGCUUUUUAUGUUUUUUAUUGUUAAACUUGUAUCCCUUUAAAAACUGAAG,0.903
CUGUGCCUUCCAGCAUCUUGUACAGCAAACCCUGACUUGUCUUUAUACCCCCAAAAUACCGUCUUCAGUAGCGACUGAAUCUGCCACUGUCAAAAUACGUUACUUGCAUU,10.2
CCCCAUGUUAGUCCUAUGCCUUGAAAUAUCAUGCACCAUGACCCACAGCCAUCUGGUUAUGUCUUAUUUUUUUCCUAAAAGAUAAUGUUUAUUUUUAAAAAGGAAGGAAG,0.555
UUGCUUUAAACUGUGAUACUUUGAUUUGCUAGAUUGACAAAACUGAUACUAAUAUAAUUAAGUUCAUCUUUGAAAUACAUCUUUGUGCGUAGAGCCAAAAAAAGAGAUAA,0.451
CUAAAUGUUCUCUUUGCCAUAAAGACUCCGUGUUAACUGUGUAAACACUUGGGAUUUUUCUCCUAUGUCCCGAGGUCUGGUCUUGAUUUCUUUUUUGGGUUUCUUUCUAG,0.403

# Block 5
# Target: Histone acetyltransferase KAT6A, winged helix 1, GST fusion (KAT6A, Homo sapiens, UniProt Q92794, residues 1-85)
# Method: protein binding microarray
# Form: double-stranded DNA, one strand shown
# Medium: in vitro
# Concentration: not given
# Setting: 8-mer, flanks averaged, mean of 2 arrays, mostly near background
# Relative to: not given
# Reading: higher = stronger binding
# Residues (chain): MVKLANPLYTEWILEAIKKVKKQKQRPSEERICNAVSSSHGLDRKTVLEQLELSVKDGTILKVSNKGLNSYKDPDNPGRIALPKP
Oligonucleotide,E-score
ATCGTTAC,0.0167
CCGTGCCG,0.373
ACCTGTAC,-0.0581
AAGATAAC,-0.0431
CCTCTGCA,-0.138
AATCCACT,-0.324
GTCACCTA,-0.107
CTCATTCA,-0.0339
ATTTTCCG,0.163
ACTACTCC,0.227
CCTCTAAA,-0.189
AACATAAA,-0.202
CGGCCCAA,0.139
CAACGAAC,-0.126
AGATTCCC,0.108
ATGCTCAC,0.0309
CTACTCCC,-0.00921
ACCTTCGA,-0.136
AAGCTGCT,-0.00431
AACTGGGA,-0.21
GTCCTTTA,-0.117

# Block 6
# Target: PABPC1L2, full length, GST fusion (mouse, UniProt A0ABA7IW68)
# Method: RNAcompete
# Form: RNA
# Medium: in vitro
# Concentration: 20 nM
# Setting: 7-mer, probes averaged, single round
# Relative to: mean of 7-mers
# Reading: higher = stronger binding
# Target sequence (chain): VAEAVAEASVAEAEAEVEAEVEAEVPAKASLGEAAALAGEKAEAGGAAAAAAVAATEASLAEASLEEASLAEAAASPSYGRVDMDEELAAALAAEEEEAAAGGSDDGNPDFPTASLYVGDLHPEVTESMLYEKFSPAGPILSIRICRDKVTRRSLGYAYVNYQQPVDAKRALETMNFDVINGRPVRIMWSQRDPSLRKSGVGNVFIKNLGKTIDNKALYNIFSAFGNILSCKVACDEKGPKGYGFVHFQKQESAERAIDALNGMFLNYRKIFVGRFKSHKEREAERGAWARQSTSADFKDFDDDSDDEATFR
Oligonucleotide,7-mer Z-score
UAAGCAC,-0.104
AGCCCAU,-0.307
AUGGCGC,-0.0264
AACUGAC,0.336
UGUUACA,-0.15
CUGCUCG,-0.251
ACUAUAA,0.468
CUGCAAC,-0.021
GCGUUCC,-0.287
GUCUCUC,-0.298
UUUUUGA,0.0551
ACUAUAU,-0.119
ACCUGUG,-0.186
GGUCGUA,-0.255
UAAGGCA,0.2
GUCAGAA,0.204
UGCUCAA,-0.101
GACAGUC,-0.219
AAGAGCG,0.544
GCUGAGU,-0.17
CGGGUCG,0.0116

# Block 7
# Target: RING finger protein unkempt homolog, zinc fingers 1-6, GST-SBP tag (UNK, Homo sapiens, UniProt Q9C0B0, residues 30-357)
# Chain of UniProt Q9C0B0 (30-357, looked up): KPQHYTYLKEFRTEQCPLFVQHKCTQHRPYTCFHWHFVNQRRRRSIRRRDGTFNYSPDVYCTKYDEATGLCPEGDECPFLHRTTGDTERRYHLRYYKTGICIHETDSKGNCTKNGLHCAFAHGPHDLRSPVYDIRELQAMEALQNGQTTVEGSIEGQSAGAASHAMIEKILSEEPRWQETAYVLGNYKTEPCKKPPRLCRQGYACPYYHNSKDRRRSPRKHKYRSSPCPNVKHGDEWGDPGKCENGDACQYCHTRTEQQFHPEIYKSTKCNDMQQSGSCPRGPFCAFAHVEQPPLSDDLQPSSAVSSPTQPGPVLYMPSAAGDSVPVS
# Method: RNA Bind-n-Seq
# Form: RNA
# Medium: in vitro
# Concentration: not given
# Setting: RNA with constant flanks, ends assumed
# Relative to: input RNA pool
# Reading: higher = stronger binding
# All sequences stand within: GGGAGUUCUACAGUCCGACGAUC … CAACAGAGGAUUGAGCAUCA
Oligonucleotide,bound/input enrichment
AGCACAUGAUUUGGGAAUUACACUUUGUGACAUGGAUGAAUCUGCACUGACCCUUGGUACAACCGAUGUUUCUUAUCUGCCACAUUCAUCAGAAUACAGUGUUGGUCGAUGUAAGCACAC,0.115 ratio
GUGUUUCAGAUUUUAAAGUGAUCACGAUUUGGUAGAUUACAGAUAUUUUUUUGUUGUUGUUUCCGUUUUUUCUUUUUCUUUUUUUAAGUAAACAGUCAAGUCAGGUCAAGCAAGACGUUA,0.772 ratio
UCUGGCCAUGGCCCCUCUGCCAAGCCUGUGUGCGAUGCCCUUGGUGCUUUAGUGCAAGAAGCCCCGGCUCAGAAGCACAGCAGCGCCAUCUUUCCGUUUCAGGGGUUGUGAUGAAGGCCA,0.156 ratio
AGUAAAAAUCUACCAAUUCUCAGGCACCAGGGUCAGCAGUUGGCCAACAAAUUGCAGUGUCCUUUUGCCGACGUACCUACUGGUACAUAUCCUCGUAAAUUUAAUGAAUCACAAAUAAAG,0.521 ratio
AAAUGUUGUUUACCUUCUCAGAGUAGUGCUUUGGGGGUUCCUGGCGGCGUGUUGGAGGUCCCGCACAUACAGCUUCCCUUAACAGAAUAUUUUACGACAGUUUCAUACAGGGUUGCCUUA,0.3 ratio
UUAGCUUUGUUAAAUGUAGCAACUCAGGGAGUUCAUUUAUGGGACUUGCAAGACAGAGUUUCCGUAAGAAAGUAUCAAGGUGUUACACAAGGGUUUUAUACAAUUCAUUCAUGUUUUGGA,0.456 ratio

# Block 8
# Target: Sal-like protein 4, full length isoform A (SALL4, Homo sapiens, UniProt Q9UJQ4, residues 1-1053)
# Chain of UniProt Q9UJQ4 (whole entry, looked up): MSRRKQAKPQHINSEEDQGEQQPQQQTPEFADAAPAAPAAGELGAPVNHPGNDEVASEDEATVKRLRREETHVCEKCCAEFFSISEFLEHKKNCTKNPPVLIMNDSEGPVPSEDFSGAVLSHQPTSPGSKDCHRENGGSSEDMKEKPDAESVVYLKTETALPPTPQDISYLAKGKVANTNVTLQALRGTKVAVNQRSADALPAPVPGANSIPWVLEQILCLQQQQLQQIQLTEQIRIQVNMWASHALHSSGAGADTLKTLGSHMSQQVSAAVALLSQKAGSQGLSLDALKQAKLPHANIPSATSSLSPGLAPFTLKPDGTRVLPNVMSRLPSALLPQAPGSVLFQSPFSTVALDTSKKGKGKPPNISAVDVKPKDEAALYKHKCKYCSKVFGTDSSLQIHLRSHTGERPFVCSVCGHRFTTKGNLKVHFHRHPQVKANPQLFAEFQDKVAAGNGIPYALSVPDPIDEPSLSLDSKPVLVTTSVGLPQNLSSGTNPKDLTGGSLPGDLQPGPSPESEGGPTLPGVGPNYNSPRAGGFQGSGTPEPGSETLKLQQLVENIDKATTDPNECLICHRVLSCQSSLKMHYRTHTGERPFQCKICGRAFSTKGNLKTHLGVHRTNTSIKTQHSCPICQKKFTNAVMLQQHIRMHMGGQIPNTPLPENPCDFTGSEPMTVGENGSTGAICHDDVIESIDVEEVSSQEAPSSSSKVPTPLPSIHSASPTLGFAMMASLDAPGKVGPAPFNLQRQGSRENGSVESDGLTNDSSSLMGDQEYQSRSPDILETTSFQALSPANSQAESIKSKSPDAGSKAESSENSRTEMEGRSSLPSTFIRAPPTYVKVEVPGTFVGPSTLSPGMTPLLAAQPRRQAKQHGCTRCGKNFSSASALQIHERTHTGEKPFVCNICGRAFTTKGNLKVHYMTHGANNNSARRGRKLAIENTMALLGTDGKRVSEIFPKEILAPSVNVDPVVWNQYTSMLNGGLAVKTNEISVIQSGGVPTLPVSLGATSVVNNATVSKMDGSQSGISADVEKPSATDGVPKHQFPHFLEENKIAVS
# Method: universal PBM
# Form: double-stranded DNA, one strand shown
# Medium: in vitro
# Concentration: 600 nM
# Setting: 8-mer, flanks averaged, mean of replicates
# Reading: higher = stronger binding
Oligonucleotide,E-score
AATTGGCA,0.108
TTCCCGAA,0.0813
ACCGCATC,-0.183
AGTTGCAT,0.151
GTCAATTA,0.192
CGCACACC,-0.173
TAATCTGA,0.176
ACCCTCCT,-0.263
GCACCACC,-0.317
CACCCTCA,-0.148
ATAACGCC,0.0615
ATTTCGTG,0.0978
AATCGGCA,0.181
GCACTATA,0.136
AACCGGGC,-0.317
ACTAGTCA,0.0201
AATATTAC,0.435
CTCCGGTC,-0.337
ATGGGTGC,-0.0262
ACACAGCA,0.0973
CTAGAATC,-0.0128
ACACTCGC,-0.0923

# For quick reference, copied from above (block 2):
Oligonucleotide,4-mer enrichment [fold]
GUAC,1.3
CUGA,0.634
AUCU,0.993
GAAA,0.921
CCUA,0.829
GCCA,0.55
UGUG,1.9
ACAA,0.695
CGUC,0.57
AGGA,0.901
